Measured values from different studies.
A part holds a random share of what one study measured.
UniProt Q8N5S9, sequence (whole entry, looked up): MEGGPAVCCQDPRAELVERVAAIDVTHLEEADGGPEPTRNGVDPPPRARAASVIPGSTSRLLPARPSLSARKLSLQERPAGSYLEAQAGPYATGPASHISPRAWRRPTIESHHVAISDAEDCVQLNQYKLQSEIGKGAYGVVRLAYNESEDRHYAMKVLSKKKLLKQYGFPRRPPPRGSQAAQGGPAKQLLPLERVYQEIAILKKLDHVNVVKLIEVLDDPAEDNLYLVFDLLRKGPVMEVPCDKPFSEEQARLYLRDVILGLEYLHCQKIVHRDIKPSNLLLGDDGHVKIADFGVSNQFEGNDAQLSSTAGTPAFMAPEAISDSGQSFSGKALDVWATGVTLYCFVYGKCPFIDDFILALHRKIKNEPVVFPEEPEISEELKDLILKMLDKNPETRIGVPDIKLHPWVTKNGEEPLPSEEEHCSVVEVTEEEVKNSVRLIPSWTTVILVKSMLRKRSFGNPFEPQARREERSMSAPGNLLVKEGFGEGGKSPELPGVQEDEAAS
UniProt Q02763, sequence (whole entry, looked up): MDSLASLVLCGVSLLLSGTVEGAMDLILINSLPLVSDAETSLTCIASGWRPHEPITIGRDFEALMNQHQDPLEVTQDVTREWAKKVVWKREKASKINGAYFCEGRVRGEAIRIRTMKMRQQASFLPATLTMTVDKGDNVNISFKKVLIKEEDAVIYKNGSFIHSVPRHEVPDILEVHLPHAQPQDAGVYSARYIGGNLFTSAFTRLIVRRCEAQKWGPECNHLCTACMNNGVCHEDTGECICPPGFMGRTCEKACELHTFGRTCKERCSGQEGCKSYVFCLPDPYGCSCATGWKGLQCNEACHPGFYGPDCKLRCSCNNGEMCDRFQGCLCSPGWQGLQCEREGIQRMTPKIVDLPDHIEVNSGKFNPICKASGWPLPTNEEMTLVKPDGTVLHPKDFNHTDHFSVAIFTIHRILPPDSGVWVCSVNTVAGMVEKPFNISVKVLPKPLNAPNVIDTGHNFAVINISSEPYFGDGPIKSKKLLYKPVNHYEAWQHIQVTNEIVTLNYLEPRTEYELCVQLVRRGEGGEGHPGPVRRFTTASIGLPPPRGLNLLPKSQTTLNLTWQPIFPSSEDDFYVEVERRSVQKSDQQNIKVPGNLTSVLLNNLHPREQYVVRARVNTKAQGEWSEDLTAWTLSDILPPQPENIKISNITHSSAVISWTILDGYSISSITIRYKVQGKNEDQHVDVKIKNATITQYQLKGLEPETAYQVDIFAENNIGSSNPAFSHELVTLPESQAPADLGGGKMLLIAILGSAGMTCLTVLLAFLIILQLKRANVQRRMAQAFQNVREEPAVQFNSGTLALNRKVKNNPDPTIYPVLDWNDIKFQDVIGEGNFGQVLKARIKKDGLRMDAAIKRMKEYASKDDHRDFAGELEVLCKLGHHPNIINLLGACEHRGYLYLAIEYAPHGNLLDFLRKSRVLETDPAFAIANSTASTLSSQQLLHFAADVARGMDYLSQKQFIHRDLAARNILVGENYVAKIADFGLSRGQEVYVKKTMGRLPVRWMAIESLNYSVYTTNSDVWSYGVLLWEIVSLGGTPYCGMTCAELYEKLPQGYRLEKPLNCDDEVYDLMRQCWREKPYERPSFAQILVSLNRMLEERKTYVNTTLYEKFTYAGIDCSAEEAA
UniProt Q86UE8, sequence (whole entry, looked up): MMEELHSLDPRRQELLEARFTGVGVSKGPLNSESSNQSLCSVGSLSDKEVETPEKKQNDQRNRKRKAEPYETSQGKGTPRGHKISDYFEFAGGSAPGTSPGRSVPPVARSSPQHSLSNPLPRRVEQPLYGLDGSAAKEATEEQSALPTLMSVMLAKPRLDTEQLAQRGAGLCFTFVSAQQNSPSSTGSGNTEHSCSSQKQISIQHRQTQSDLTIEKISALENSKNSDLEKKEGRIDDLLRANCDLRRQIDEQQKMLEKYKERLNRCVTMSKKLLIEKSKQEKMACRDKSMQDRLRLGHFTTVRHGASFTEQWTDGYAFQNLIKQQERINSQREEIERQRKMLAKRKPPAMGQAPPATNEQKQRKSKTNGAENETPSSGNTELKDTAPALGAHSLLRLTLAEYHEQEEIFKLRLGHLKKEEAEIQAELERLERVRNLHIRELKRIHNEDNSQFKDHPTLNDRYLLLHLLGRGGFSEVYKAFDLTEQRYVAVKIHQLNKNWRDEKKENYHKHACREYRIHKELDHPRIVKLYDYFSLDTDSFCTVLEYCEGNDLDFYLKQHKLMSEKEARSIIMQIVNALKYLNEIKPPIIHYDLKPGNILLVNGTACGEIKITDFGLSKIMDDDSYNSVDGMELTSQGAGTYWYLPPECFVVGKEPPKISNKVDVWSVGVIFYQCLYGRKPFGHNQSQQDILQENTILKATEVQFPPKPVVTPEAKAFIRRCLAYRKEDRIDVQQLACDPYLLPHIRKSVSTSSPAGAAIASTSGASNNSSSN
UniProt Q96RR4, sequence (whole entry, looked up): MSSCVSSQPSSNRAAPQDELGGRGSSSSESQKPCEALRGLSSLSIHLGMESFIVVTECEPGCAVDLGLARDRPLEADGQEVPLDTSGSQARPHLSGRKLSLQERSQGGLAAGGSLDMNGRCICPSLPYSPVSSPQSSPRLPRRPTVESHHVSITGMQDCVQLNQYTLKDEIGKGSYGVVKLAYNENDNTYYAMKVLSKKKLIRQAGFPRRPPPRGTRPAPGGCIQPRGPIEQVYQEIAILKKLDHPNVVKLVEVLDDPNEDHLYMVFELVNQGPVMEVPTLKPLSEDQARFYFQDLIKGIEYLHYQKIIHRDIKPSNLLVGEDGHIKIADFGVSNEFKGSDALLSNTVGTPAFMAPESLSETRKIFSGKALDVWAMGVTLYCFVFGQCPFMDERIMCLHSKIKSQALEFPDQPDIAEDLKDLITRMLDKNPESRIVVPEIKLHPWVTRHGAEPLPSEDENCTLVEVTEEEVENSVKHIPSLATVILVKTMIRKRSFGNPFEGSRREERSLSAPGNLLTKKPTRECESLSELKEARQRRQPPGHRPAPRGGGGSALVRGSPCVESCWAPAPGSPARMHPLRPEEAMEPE
UniProt Q15418, sequence (whole entry, looked up): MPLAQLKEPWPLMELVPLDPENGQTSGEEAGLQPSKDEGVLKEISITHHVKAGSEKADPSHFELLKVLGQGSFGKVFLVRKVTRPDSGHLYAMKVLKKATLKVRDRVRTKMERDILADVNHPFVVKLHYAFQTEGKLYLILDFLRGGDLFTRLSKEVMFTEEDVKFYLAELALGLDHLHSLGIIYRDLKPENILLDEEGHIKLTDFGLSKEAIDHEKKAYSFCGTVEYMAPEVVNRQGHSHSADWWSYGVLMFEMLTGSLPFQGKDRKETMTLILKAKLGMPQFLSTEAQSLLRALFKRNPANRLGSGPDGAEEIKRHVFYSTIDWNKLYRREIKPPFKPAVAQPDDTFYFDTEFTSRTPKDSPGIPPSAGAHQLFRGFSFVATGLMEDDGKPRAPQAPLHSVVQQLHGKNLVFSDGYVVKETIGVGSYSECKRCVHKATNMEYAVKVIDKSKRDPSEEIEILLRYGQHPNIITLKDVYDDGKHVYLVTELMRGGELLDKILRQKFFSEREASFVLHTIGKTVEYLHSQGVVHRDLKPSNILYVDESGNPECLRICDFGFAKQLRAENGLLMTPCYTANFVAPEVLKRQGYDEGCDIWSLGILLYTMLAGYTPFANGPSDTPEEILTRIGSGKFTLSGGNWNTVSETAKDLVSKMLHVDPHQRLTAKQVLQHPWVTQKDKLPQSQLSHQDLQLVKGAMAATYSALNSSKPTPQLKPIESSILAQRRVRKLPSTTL

Study 1 — effect on: cell-free assay; method: competition with immobilised ligand; tested at: 1 µM
SMILES: COc1ccc2c(c1)O[C@@H](c1ccc(OC)c(OC)c1)C[C@H]2NC(=O)C1(c2ccc3c(c2)OC(F)(F)O3)CC1
The remaining binding was 98% (Ribosomal protein S6 kinase alpha-1, N-terminal kinase domain (RPS6KA1, Homo sapiens, UniProt Q15418)).
For TEK (Homo sapiens, UniProt Q02763): remaining binding read 92%.
For CAMKK1 (Homo sapiens, UniProt Q8N5S9): remaining binding read 89%.
It gave 96% for remaining binding (CAMKK2 (Homo sapiens, UniProt Q96RR4)).
It gave 82% for remaining binding (SIK3 (Homo sapiens, UniProt Q9Y2K2)).
It gave 100% for remaining binding (TLK2 (Homo sapiens, UniProt Q86UE8)).
The remaining binding was 100% (MET (Homo sapiens, UniProt P08581)).

Study 2 — method: RNA Bind-n-Seq; form: RNA; sample: in vitro; tested at: 1 µM; setting: whole 134-nt RNA, ends assumed; together with: 150 mM KCl; baseline: input library; direction: higher = stronger binding
Target: Ras GTPase-activating protein-binding protein 1, C-terminal RGG region (G3BP1, Homo sapiens, UniProt Q13283)
UniProt Q13283, sequence (whole entry, looked up): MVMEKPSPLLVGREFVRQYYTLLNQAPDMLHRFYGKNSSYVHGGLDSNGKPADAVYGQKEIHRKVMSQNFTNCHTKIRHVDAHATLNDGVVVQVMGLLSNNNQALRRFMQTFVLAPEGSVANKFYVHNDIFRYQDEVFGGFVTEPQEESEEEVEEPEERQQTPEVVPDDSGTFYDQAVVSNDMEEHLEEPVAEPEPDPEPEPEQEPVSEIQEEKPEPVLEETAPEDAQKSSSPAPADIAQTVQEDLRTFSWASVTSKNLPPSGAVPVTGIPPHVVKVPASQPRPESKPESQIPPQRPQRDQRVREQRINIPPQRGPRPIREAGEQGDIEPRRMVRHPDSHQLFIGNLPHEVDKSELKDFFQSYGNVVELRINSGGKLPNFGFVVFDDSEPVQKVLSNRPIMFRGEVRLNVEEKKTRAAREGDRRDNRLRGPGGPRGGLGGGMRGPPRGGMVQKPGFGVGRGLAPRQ
All sequences stand within: GGGAGUUCUACAGUCCGACGAUC … UGGAAUUCUCGGGUGUCAAGG
With `UUUUAUGUGGAGUUAUGAAGACCUACAGGCAGAGAGAGAAACAGGGGAGCAAGGUGCAAGAGUCCACAAAGGGACCUGAUGAAGCGAAGA` the log2 enrichment was -0.745.
The log2 enrichment of `AAGUCCUGUGCUACACAUCGUAUGUACCGAAUCGGGGUGGGGUUUUUGGGGAGGGGAAAGUAUUAUGUUACGCCGUUCGGAUCUGCACUU` is reported as 1.92.
With `CCUGUGCUACACAUCGUAUGUACCGAAUCGGGAAAAAAAGGGUUUUUUUGGGAAAAAGGGAAAGUAUUAUGUUACGCCGUUCGGAUCUGC` the log2 enrichment was -2.19.
The log2 enrichment of `GCAGGAAGUAAAAACAAAUGGAAAUGCUUCGGAUAGUGGCAGGGGUGGGGGUUGCUAAGGAAAGGUUGGGAUGGGAGUGGGUAAAGAGUU` is reported as 2.
For `UAACUUUAGAGGAGGAUUUGAUGGAUAUGGCAGUGGACGUGGAUUUGGGGAUGGCUAUAAUGGGUAUGGAGGAGGACCUGGAGGUGGCAA`, the log2 enrichment was -1.45.
`GUCCUGUGCUACACAUCGUAUGUACCGAAUCGGGUUUUUGGGUUUGGGUUUUUUUGGGAAAGUAUUAUGUUACGCCGUUCGGAUCUGCAC` has a log2 enrichment of 0.0681.
For `ACCAUGCAGGUGGGCAUCUUUGGGAAGUGGGGCAAGGGGGGGAUAGGGAGGGGGGUAACACUUUGGGAACAGGUGGUCCCAGGUCGUAUC`, the log2 enrichment was 1.44.
`UUCCUCAAGUCCUGUGCUACACAUCGUAUGUACCGAAUCGGCGGGCGGCGGAAAGUAUUAUGUUACGCCGUUCGGAUCUGCACUUCCAGC` has a log2 enrichment of -0.464.

Study 3 — effect on: enzyme activity; action: inhibitor; tested at: 0.5 µM; baseline: control
Target: Calcium/calmodulin-dependent protein kinase kinase 1 (CAMKK1, Homo sapiens, UniProt Q8N5S9)
The remaining activity of `CCOC(=O)c1c(C)[nH]c(/C=C2\C(=O)Nc3ccccc32)c1C` is reported as 95.3%.
For `O=S(=O)(c1cccc2cnccc12)N1CCCNCC1`, the remaining activity was 108%.
`Cc1cccc(-c2[nH]c(C(C)(C)C)nc2-c2ccc3c(c2)OCO3)n1` has a remaining activity of 103%.
With `Cn1sc(=O)n(Cc2ccccc2)c1=O` the remaining activity was 114%.
The remaining activity of `COc1cc2ncnc(Nc3ccc(Oc4ccccc4)cc3)c2cc1OC` is reported as 93.1%.
`CN(C)c1ccc(C=C2C(=O)Nc3ccccc32)cc1` has a remaining activity of 98.6%.
The remaining activity of `O=c1c2ccccc2[nH]c(=S)n1CCN1CCC(=C(c2ccc(F)cc2)c2ccc(F)cc2)CC1` is reported as 110%.
With `COc1cc2ncnc(Nc3ccc(F)c(Cl)c3)c2cc1OCCCN1CCOCC1` the remaining activity was 93.8%.
With `N#CC(C#N)=C(N)/C(C#N)=C/c1ccc(O)cc1` the remaining activity was 104%.
The remaining activity of `Nc1ccc2ncnc(NCCc3ccc(Oc4ccccc4)cc3)c2c1` is reported as 119%.
With `O=C(Nc1cccc(Nc2cc(Nc3cccc(C(F)(F)F)c3)ncn2)c1)C1CC1` the remaining activity was 116%.
`Cc1ccc(NC(=O)c2ccc(CN3CCN(C)CC3)cc2)cc1Nc1nc(-c2cccnc2)cs1` gave a remaining activity of 97.6%.
`COc1cc2nccc(Oc3ccc(NC(=S)NC(=O)c4ccccc4C)cc3)c2cc1OC` gave a remaining activity of 91.2%.
`O=C1NC(=O)C(c2cn(CCCn3ccnc3)c3ccccc23)=C1Nc1ccccc1` has a remaining activity of 96.3%.

Study 4 — method: EMSA with sequencing; form: double-stranded DNA, one strand shown; sample: in vitro; tested at: 10 and 20 nM; baseline: negative control set to 0; direction: higher = stronger binding
Target: Hepatocyte nuclear factor 3-alpha (Foxa1, Mus musculus, UniProt P35582, residues 1-468, full length assumed)
UniProt P35582, sequence (whole entry, looked up): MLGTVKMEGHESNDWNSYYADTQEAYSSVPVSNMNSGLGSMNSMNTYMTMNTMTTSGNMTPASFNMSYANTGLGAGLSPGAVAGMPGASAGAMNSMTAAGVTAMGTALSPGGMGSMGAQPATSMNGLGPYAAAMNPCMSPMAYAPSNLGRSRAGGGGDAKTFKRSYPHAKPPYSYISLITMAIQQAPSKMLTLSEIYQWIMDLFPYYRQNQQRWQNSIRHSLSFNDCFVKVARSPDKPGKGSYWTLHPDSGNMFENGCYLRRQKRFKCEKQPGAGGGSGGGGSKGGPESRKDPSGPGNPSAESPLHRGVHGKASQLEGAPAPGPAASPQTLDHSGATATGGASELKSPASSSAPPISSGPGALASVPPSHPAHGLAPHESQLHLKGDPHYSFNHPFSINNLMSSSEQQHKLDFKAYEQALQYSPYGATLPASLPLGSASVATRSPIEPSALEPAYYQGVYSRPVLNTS
Setting: whole designed probe, mean of two concentrations, ends assumed
All sequences stand within: GTGAGCGGTGCCCATTGATGGGGAAC … TTTCACTGGGATCGTGGGGAC
`TGAGACACCAAGCATAGCCCAGCACTTAATTTTTAAAAAGGCTTAAAGTGTCACATACAGAAGCTCATTAAGTTAACAAGTGTACAGATGCTTGTTTACTTATTACGCACAATCTTACGAGGCCACACAATCTGAGCAATGATTAGGAGCTCAAAGTTTAGATCCAATCTCAGGACAACATGAAATAAATGAC` — result for “normalised bound fraction”: 0.419 ratio.
`CAGCCTGCAGTGCGCTCAGTTAAACAATTCCAAATCAAGGAATTTTGTCTGATACAAGGAATTTGGGGTGTGTTTTCCTAACATGCACCCTGGGTAAATAGACTGGGGGGGGGGCGCATTTCCTGACCCAGCTGAAGCCAATATGCATTGCGGCCACAAGGTGGCGCGTCTGGGCCTGGCAAACCCCTGTGCT`: “normalised bound fraction” 0.222 ratio.
For `GTCCTTTTTAACACGCAGCGGTTGTGGGGACAAGGTTTCCGAGGAGGCGGGAGCGAGCGACGGCCCCCGCCTCCCACACGCCCTCTGCTTTGGTAAACAAGGAGACTCCCGCCCGCAGGCTGTAAATGAGGCACGAGCTTGGGGGCAGCGCCAGGGCGCCTGGCGTCACTGTTCAAAAAGGCCTCTTATTGGT`, “normalised bound fraction” read 0.221 ratio.
`ATGAAGGGCTGCCAGTGTAATTTGAACCTCAAATAAACAACAGATAAAACTGTAGTATAATTGCACAACAGTATGTCCCATATACGATCTTTTTGTTTGCCTAATCTGGCAAAGATATTGACTTAACACACACTAATCTGTTGACAGGTAGGTGAAATATTTGAACTTCTACGTTGCTTCTCTAATCCTGTCC` — result for “normalised bound fraction”: 0.394 ratio.
`TAAGAAAGTAATAAACTAGGCTTGCCCTGGCAGTCATATTGTAATGGAACGCAGATACCTCATTGTGTGTGAATTTGAAATTAAAAAACAAAGTAAACATGGTGAGCTGCTACCATTGCTGCCCCCTCCCTGCCTTGCCCACTAAGGAGAGAGGCACTGCCTTGTTTCCCTTTGTATTTCAAGGAGCTTCTCG` — result for “normalised bound fraction”: 0.369 ratio.

For quick reference, copied from above (study 4):
`TAAGAAAGTAATAAACTAGGCTTGCCCTGGCAGTCATATTGTAATGGAACGCAGATACCTCATTGTGTGTGAATTTGAAATTAAAAAACAAAGTAAACATGGTGAGCTGCTACCATTGCTGCCCCCTCCCTGCCTTGCCCACTAAGGAGAGAGGCACTGCCTTGTTTCCCTTTGTATTTCAAGGAGCTTCTCG` — result for “normalised bound fraction”: 0.369 ratio.
`CAGCCTGCAGTGCGCTCAGTTAAACAATTCCAAATCAAGGAATTTTGTCTGATACAAGGAATTTGGGGTGTGTTTTCCTAACATGCACCCTGGGTAAATAGACTGGGGGGGGGGCGCATTTCCTGACCCAGCTGAAGCCAATATGCATTGCGGCCACAAGGTGGCGCGTCTGGGCCTGGCAAACCCCTGTGCT`: “normalised bound fraction” 0.222 ratio.
